Measured values of several laboratories.
Each line is one published result; not all experiments were run side by side. Several values in a cell are separate wells, animals, samples, runs or records. ± gives the spread as reported.

For `COc1cc2c(=O)c(-c3ccc(O)cc3)coc2cc1O[C@@H]1O[C@H](CO)[C@@H](O)[C@H](O)[C@H]1O`, the CYP1A1 induction was 1.34 fold (BEAS-2B; fluorogenic substrate; 10 µM, 24 h; baseline: control).
`Cc1cnc(Nc2ccc(OCCN3CCCC3)cc2)nc1Nc1cccc(S(=O)(=O)NC(C)(C)C)c1` gave an ATP level of 99.4% (iCell cardiomyocytes hiPSC-derived; CellTiter-Glo; concentration not given, 24 h; baseline: vehicle).
Under “lowest cytotoxic concentration”, `C[C@H]1[C@H](OC(=O)CCC(=O)O)O[C@@H]2O[C@@]3(C)CC[C@H]4[C@H](C)CC[C@@H]1[C@@]24OO3` is recorded as 1 µM (MV4-11 cells; CellTox Green; 24 h).
`CCCCCCCC[N+](CCCCCCCC)(CCCCCCCC)CCCCCCCC.[Br-]` has an LDH release of 73.3 mU/mL and 67.8 mU/mL and 75.5 mU/mL (hTERT-RPTEC parental; concentration not given, 96-well plate).
For `CCS(=O)(=O)Oc1ccc(C=NNC(=O)CSc2nc3ccc(Cl)cc3c(=O)n2-c2ccccc2)cc1`, the cytotoxicity was 68.1 ± 4.48% (BJ1; MTT; 100 µM).
`COc1cc(C(=O)NS(=O)(=O)c2ccccc2C)ccc1Cc1cn(C)c2ccc(NC(=O)OC3CCCC3)cc12` — result for “highest non-cytotoxic concentration”: greater than 128 µM (BEAS-2B; resazurin; 24 h).
Under cytotoxicity, `C/C(=N\Nc1ccc(F)cc1)c1ccc(-c2ccc(/C(C)=N/Nc3ccc(F)cc3)cc2)cc1` is recorded as “not toxic” (BEAS-2B; 15.5 µg/mL).
The CYP1A1 induction of `COc1ccc(-c2cc(=O)c3c(O)cc(O)cc3o2)cc1-c1c(O)cc(O)c2c(=O)cc(-c3ccc(O)cc3)oc12` is reported as 1.17 fold (BEAS-2B; enzyme activity, inducer, fluorogenic substrate imaging; 10 µM, 24 h; baseline: control).
For `N#Cc1cccc2[nH]ccc12`, the EC50 was 1330 µM (uninfected HCT-8; cytotoxicity, Hoechst nuclei count).
For `CC(=O)CCCCn1c(=O)c2c(ncn2C)n(C)c1=O`, the CC50 was greater than 10 µM (PH5CH8 hepatocytes; high-content cell count; 72 h, oleate lipid loaded).
`Cc1ccc(-c2nn(-c3ccccc3)cc2C=Nc2c(N)nc(S)nc2O)cc1` has a CC50 of 17 ± 0.79 µM (CCRF-CEM; cytotoxicity, differential nuclear staining; 48 h).
For `CC(C)(c1ccc(O)cc1)c1ccc(O)cc1`, the viable cells was 44.3 ± 4.53% (HepG2 spheroids, dissociated; annexin V-FITC/PI flow cytometry; 1 µM, 96 h).
`CC(/C=C/C(=O)NO)=C\[C@@H](C)C(=O)c1ccc(N(C)C)cc1` gave a viability of 0.843% (HBL-1; 0.5 µM, 120 h).
`O=C1CCc2ccccc2O1` gave a CC50 of greater than 10 µM (PH5CH8 hepatocytes; high-content cell count; 72 h, oleate lipid loaded).
The CYP1A1 induction of `CC(C)=CCc1cc(-c2coc3cc(O)ccc3c2=O)ccc1O` is reported as 1.28 fold (BEAS-2B; enzyme activity, inducer, fluorogenic substrate imaging; 10 µM, 24 h; baseline: control).
`Cn1cnc([N+](=O)[O-])c1Sc1ccccc1C(=O)NCCn1cc(C(=O)NCc2ccccn2)c(=O)c2cc3c(cc21)OCO3` has a TC50 of greater than 100 µM (PHA-P-stimulated PBMC pooled; cytotoxicity, XTT; 7 days).
With `CCN(CC)c1ccc2c(-c3ccccc3C(=O)O)c3ccc(=[N+](CC)CC)cc-3oc2c1` the CC50 was greater than 10 µM (PH5CH8 hepatocytes; high-content cell count; 72 h, oleate lipid loaded).
With `Cc1ccc(-n2sc3ccccc3c2=O)cc1` the CC50 was greater than 90 µM (HIV-1 Ba-L-infected human monocyte-derived macrophages; 7 d).
For `CC(=O)Nc1cccc(-n2c(=O)n(C3CC3)c(=O)c3c(Nc4ccc(I)cc4F)n(C)c(=O)c(C)c32)c1`, the viability was 0.103 and 0.109 (COLO 205; resazurin; 6.25 nM, 72 h, unit not given; baseline: DMSO).
`CCCC(C(=O)O)c1c(C)nc2ccc(Cl)cc2c1-c1ccccc1` (centres unmarked) gave a CC50 of 42.2 ± 9.44 µM (MT-4).
With `N#Cc1cccc2cc[nH]c12` the EC50 was 2320 µM (uninfected HCT-8; cytotoxicity, Hoechst nuclei count).
`Cc1[nH]c2ccccc2c1CCNCc1ccc(/C=C/C(=O)NO)cc1` has a viability of 0.252% (HBL-1; 0.5 µM, 120 h).
For `CC(C)C(=O)Nc1ccc([N+](=O)[O-])c(C(F)(F)F)c1`, the IC50 was 32 ± 3.8 µM (THLE-2 transduced with Ad-UGT1A4; cytotoxicity; 48 h).
With `COc1ccc(-c2oc3c(CC=C(C)C)c(O)cc(O)c3c(=O)c2O)cc1` the CYP1A1 induction was 1.18 fold (BEAS-2B; enzyme activity, inducer, fluorogenic substrate imaging; 10 µM, 24 h; baseline: control).
`COc1cccc2cc[nH]c12` has an EC50 of 1390 µM (uninfected HCT-8; cytotoxicity, Hoechst nuclei count).
`CCCCCCc1c(C)nc2cc(OC)ccc2c1O` gave an IC50 of 0.158 ± 0.019 µM (Plasmodium yoelii; 17XL; 384-well).
The EC50 of `Oc1cccc2cc[nH]c12` is reported as 2510 µM (uninfected HCT-8; cytotoxicity, Hoechst nuclei count).
The CYP1A1 induction of `O=C1c2c(O)cc(O)cc2O[C@H](c2cc(O)c(O)c(O)c2)[C@H]1O` is reported as 1.54 fold (BEAS-2B; enzyme activity, inducer, fluorogenic substrate imaging; 10 µM, 24 h; baseline: control).
The viable cells of `CCn1c2ccccc2c2cc(-n3nncc3-c3ccccc3)ccc21` is reported as 30 to 50% (MDA-MB-231; cell detachment; detached cell population; concentration not given, 24 h).
With `COc1cc(O)cc2c1C(=O)C[C@@H](c1ccccc1)O2` the CYP1A1 induction was 1.11 fold (BEAS-2B; enzyme activity, inducer, fluorogenic substrate imaging; 10 µM, 24 h; baseline: control).
The TC50 of `CCCC(=O)OCSc1ccccc1C(=O)NCCn1ccc(=O)c2cc3c(cc21)OCO3` is reported as greater than 100 µM (PHA-P-stimulated PBMC pooled; cytotoxicity, XTT; 7 days).
The IC50 of `CN1CCN(CCCN2c3ccccc3Sc3ccc(C(F)(F)F)cc32)CC1` is reported as 110 ± 9.7 µM (THLE-2 transduced with Ad-UGT1A4; cytotoxicity; 48 h).
`CCCC(=O)OCSc1ccccc1C(=O)NCCn1cc(C(=O)NCc2cccc(C)n2)c(=O)c2cc3c(cc21)OCO3` has a TC50 of greater than 100 µM (PHA-P-stimulated PBMC pooled; cytotoxicity, XTT; 7 days).
`Cc1[nH]c(C)c([N+](=O)[O-])c(=O)c1-c1ccc(Oc2ccccc2)cc1` has an IC50 of 0.237 ± 0.063 µM (Plasmodium yoelii; 17XL; 384-well).
`COc1cccc(CN(CCN(CCN(C)C)Cc2ccccc2)Cc2ccccc2)c1` gave an apoptotic cells of 9.6% (WI-38; propidium iodide flow cytometry; 15 µM, 21 h).
`COC[C@@H](CC(C)C)NC(=O)c1ccc(C)c(C)c1` has a mitotic index of 8.5 (primary human lymphocytes; 110 µg/mL, 20 h).
The EC50 of `COc1cccc2[nH]ccc12` is reported as 4160 µM (uninfected HCT-8; cytotoxicity, Hoechst nuclei count).
`Cc1cc(C(=O)NC(C)(C)COc2cccc3c2C(N)=NS(=O)(=O)N3)cc(C)n1` has a cytotoxicity of 5% (human peripheral blood lymphocytes; CBPI, preliminary test; 6 µg/mL, 4 h; baseline: vehicle control).
The CYP1A1 induction of `O=C(CCc1ccc(O)cc1)c1c(O)cc(O)cc1O` is reported as 0.97 fold (BEAS-2B; enzyme activity, inducer, fluorogenic substrate imaging; 10 µM, 24 h; baseline: control).
For `CCCC(=O)OCSc1ccccc1C(=O)NCCn1ccc(=O)c2cc(OC)ccc21`, the TC50 was greater than 100 µM (PHA-P-stimulated PBMC pooled; cytotoxicity, XTT; 7 days).
For `CC(ONC(=O)c1cc(C(F)(F)F)cc(C(F)(F)F)c1)C(=O)Nc1ccc(Cl)cc1` (centres unmarked), the CC50 was greater than 10 µM (PH5CH8 hepatocytes; high-content cell count; 72 h).
The EC50 of `Cc1cccc2cc[nH]c12` is reported as 1860 µM (uninfected HCT-8; cytotoxicity, Hoechst nuclei count).
`Cc1ncc([N+](=O)[O-])n1CCO` has a CC50 of 199 µM (LMH chicken hepatoma).
With `O=c1c(O)c(-c2ccc(O)cc2)oc2c(O)c(O)cc(O)c12` the CYP1A1 induction was 2.1 fold (BEAS-2B; enzyme activity, inducer, fluorogenic substrate imaging; 10 µM, 24 h; baseline: control).

Some of these lines once more:
For `CCS(=O)(=O)Oc1ccc(C=NNC(=O)CSc2nc3ccc(Cl)cc3c(=O)n2-c2ccccc2)cc1`, the cytotoxicity was 68.1 ± 4.48% (BJ1; MTT; 100 µM).
The CYP1A1 induction of `O=C(CCc1ccc(O)cc1)c1c(O)cc(O)cc1O` is reported as 0.97 fold (BEAS-2B; enzyme activity, inducer, fluorogenic substrate imaging; 10 µM, 24 h; baseline: control).
With `COc1cc(O)cc2c1C(=O)C[C@@H](c1ccccc1)O2` the CYP1A1 induction was 1.11 fold (BEAS-2B; enzyme activity, inducer, fluorogenic substrate imaging; 10 µM, 24 h; baseline: control).
The EC50 of `Cc1cccc2cc[nH]c12` is reported as 1860 µM (uninfected HCT-8; cytotoxicity, Hoechst nuclei count).
For `CC(C)(c1ccc(O)cc1)c1ccc(O)cc1`, the viable cells was 44.3 ± 4.53% (HepG2 spheroids, dissociated; annexin V-FITC/PI flow cytometry; 1 µM, 96 h).
The CYP1A1 induction of `O=C1c2c(O)cc(O)cc2O[C@H](c2cc(O)c(O)c(O)c2)[C@H]1O` is reported as 1.54 fold (BEAS-2B; enzyme activity, inducer, fluorogenic substrate imaging; 10 µM, 24 h; baseline: control).
